Results collected from several papers.
Parts stem from different laboratories: compare values within a part only. Positions count from the first letter of the parent shown.

Sample 1
Target: Phosphate system positive regulatory protein PHO4, full length, GST-tagged (PHO4, Saccharomyces cerevisiae, UniProt P07270, residues 1-312)
Method: competition protein-binding microarray
Molecule type: double-stranded DNA, one strand shown
Matrix: in vitro
Tested at: 2 µM
Setting: whole 60-bp probe, lowest competitor level
Together with: Cbf1 competitor, 0.05 µM
Direction: higher = stronger binding
Residues (chain): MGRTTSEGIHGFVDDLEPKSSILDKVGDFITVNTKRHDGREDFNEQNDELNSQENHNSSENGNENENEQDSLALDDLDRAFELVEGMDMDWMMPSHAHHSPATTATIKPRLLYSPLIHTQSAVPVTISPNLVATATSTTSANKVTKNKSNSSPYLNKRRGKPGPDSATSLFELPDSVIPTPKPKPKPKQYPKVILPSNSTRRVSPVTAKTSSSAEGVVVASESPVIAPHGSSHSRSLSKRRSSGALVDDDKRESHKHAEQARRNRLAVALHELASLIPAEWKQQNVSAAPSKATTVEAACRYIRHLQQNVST
`CGTCCTAGTGATTGTTGGGTGGGTGCCATGAGGAAGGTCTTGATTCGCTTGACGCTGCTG` gave a fluorescence intensity of 7640 a.u.
For `CGGATCGCGCTGACGCACGCTGCGTTTACCAAACTTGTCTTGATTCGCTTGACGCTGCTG`, the fluorescence intensity was 7710 a.u.
The fluorescence intensity of `CCGGCCCGGAATATACGCGTGGTCGCGCTCTTTCGGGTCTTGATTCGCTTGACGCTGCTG` is reported as 9340 a.u.
For `GACACATCGCTAGAAAAATTGGCATTACTAGAAAGCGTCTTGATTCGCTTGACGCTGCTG`, the fluorescence intensity was 3160 a.u.
`GCATTTGTCTTCTTTCATTTGAAATCTTCATAATCTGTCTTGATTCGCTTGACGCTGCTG` has a fluorescence intensity of 2730 a.u.
`AAATTACTAAGTTGGGACGTGGGTGACGCCGTATGAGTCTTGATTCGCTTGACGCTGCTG` gave a fluorescence intensity of 6270 a.u.
With `GTTGGAGATAGTGTAACCGTGACTCGATTTTTCAAGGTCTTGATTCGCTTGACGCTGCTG` the fluorescence intensity was 5220 a.u.
`AGGGACGAGGGTTGCCACGAGGAGGTAGGAAGGAGCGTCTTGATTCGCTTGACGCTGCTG` gave a fluorescence intensity of 11100 a.u.

Sample 2
Substitution: G23R
Target: ABI1, truncated, D143A, DHFR fusion (Arabidopsis thaliana)
Method: DHFR PCA, deep sequencing
Matrix: yeast
Setting: methotrexate growth selection, single substitutions
Baseline: wild-type fitted maximum
Direction: higher = stronger binding
Starting sequence: PYL1, truncated, DHFR fusion (Arabidopsis thaliana); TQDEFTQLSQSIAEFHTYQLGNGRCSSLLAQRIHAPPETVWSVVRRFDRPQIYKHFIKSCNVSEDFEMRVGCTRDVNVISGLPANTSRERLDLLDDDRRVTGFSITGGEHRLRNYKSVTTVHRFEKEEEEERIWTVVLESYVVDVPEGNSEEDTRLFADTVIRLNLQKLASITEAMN; partner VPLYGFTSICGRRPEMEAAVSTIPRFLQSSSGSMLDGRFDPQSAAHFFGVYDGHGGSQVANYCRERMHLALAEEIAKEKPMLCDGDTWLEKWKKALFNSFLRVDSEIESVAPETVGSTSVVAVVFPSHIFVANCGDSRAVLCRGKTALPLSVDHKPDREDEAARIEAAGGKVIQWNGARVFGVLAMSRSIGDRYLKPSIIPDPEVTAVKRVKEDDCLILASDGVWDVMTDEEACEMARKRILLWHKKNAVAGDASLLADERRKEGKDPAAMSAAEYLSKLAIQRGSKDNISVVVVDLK
For together with: (+)-ABA 58 µM: “relative binding score” read 83.2%.
The “relative binding score” was 40.1% (together with: (+)-ABA 1.4 µM).
It gave 31.7% for “relative binding score” (together with: (+)-ABA 0.39 µM).
together with: (+)-ABA 2500 µM — “relative binding score”: 98.5%.
For together with: (+)-ABA 4.8 µM: “relative binding score” read 58.5%.
It gave 75.4% for “relative binding score” (together with: (+)-ABA 17 µM).

Sample 3
Target: Protein C-ets-1, full length (ETS1, Homo sapiens, UniProt P14921, residues 1-441)
Method: protein-binding microarray
Molecule type: hairpin DNA
Matrix: in vitro
Tested at: not given
Setting: whole hairpin DNA, median over replicate spots
Baseline: not given
Direction: higher = stronger binding
Target sequence (chain): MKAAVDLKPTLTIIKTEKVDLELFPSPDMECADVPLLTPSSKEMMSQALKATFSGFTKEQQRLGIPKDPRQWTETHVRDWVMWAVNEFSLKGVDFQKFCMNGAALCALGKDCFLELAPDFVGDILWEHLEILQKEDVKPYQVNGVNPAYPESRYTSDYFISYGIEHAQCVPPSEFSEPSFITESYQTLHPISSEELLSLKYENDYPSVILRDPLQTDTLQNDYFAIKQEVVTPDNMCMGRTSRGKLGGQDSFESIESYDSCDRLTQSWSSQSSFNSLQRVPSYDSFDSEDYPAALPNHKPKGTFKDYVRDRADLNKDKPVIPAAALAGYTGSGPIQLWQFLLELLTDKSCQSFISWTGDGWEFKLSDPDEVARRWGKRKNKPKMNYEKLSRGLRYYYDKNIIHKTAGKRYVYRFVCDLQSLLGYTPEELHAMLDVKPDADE
`GAGGCCAGTCGGACGTTGCCTCCTGGCAACGTCCGACTGGCCTCACACTC (5mC at 14)` has a median fluorescence of 717 a.u.
`GAGGCCTGCCGGAAGTTGCCTCCTGGCAACTTCCGGCAGGCCTCACACTC` gave a median fluorescence of 8780 a.u.
For `GAGGCCGGCCGGAAGTTGCCTCCTGGCAACTTCCGGCCGGCCTCACACTC`, the median fluorescence was 9300 a.u.
With `GAGGCCAGTCCGAAGTTGCCTCCTGGCAACTTCGGACTGGCCTCACACTC (5mC at 11)` the median fluorescence was 549 a.u.
`GAGGCCAGCCGGACGTTGCCTCCTGGCAACGTCCGGCTGGCCTCACACTC` gave a median fluorescence of 2730 a.u.
The median fluorescence of `GAGGCCATTCGGAAGTTGCCTCCTGGCAACTTCCGAATGGCCTCACACTC` is reported as 2180 a.u.
With `GAGGCCACTCGGAAGTTGCCTCCTGGCAACTTCCGAGTGGCCTCACACTC (5mC at 8)` the median fluorescence was 2210 a.u.
`GAGGCCAGTCGGACGTTGCCTCCTGGCAACGTCCGACTGGCCTCACACTC (5mC at 30)` has a median fluorescence of 767 a.u.

Single results of other studies
Starting sequence: PafA, mature enzyme, eGFP fusion (Elizabethkingia meningoseptica, UniProt Q9KJX5); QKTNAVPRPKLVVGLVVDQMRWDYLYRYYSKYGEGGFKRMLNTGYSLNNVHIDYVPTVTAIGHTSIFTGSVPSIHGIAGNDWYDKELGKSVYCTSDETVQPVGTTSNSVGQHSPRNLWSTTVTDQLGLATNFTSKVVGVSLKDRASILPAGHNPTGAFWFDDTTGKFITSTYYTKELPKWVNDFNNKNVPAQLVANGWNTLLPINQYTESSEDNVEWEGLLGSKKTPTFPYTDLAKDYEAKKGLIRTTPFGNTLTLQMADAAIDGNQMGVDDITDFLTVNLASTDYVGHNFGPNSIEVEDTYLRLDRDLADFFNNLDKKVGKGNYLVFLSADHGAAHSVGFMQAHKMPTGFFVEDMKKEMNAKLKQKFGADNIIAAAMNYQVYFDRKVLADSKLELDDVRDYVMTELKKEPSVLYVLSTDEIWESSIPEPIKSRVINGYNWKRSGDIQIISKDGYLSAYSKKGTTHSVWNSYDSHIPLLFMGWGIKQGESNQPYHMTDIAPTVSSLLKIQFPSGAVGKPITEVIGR
Under “oxyanion analog dissociation constant”, `I61V` is recorded as 1.96 µM (tungstate, free oxyanion; microfluidic competitive inhibition; in vitro, cell-free expressed; not given, derived from inhibition constants, unchanged parent 2230 nM; lower = stronger binding).

For quick reference, copied from above (sample 1):
`GCATTTGTCTTCTTTCATTTGAAATCTTCATAATCTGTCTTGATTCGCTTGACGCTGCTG` has a fluorescence intensity of 2730 a.u.
The fluorescence intensity of `CCGGCCCGGAATATACGCGTGGTCGCGCTCTTTCGGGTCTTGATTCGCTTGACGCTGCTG` is reported as 9340 a.u.
